Results collected from several papers.
Each numbered part is a random draw from the data of one study; scales do not carry over between parts.

Series 1 — method: protein-binding microarray; form: double-stranded DNA, one strand shown; medium: in vitro; tested at: 940 nM top; setting: 60-bp whole probe; added: salmon DNA 0.4 mg/ml; reference: random background probes; reading: higher = stronger binding; endpoint: fitted relative affinity
Target: Interferon regulatory factor 5, full length, phosphomimetic (IRF5, Homo sapiens, UniProt Q13568-2, residues 1-514, S451D/S453D/S456D/S462D)
GCCTAGCACGACGGTTTCGGGTCCGGGACGTGCTAGGTCTTGATTCGCTTGACGCTGCTG: 9.55 z-score
GCCTAGCACGACGGGATCGGGTTTCGGGACGTGCTAGTCTTGATTCGCTTGACGCTGCTG: 2.34 z-score
GCCTAGCACTCTGTTTCCTCTTTCTTTGCGTGCTAGGTCTTGATTCGCTTGACGCTGCTG: 2.36 z-score
GCCTAGCACGACGATATCACTTTCGAGACGTGCTAGGTCTTGATTCGCTTGACGCTGCTG: 2.12 z-score

Series 2 — method: protein binding microarray; form: double-stranded DNA, one strand shown; medium: in vitro; tested at: not given; reference: not given; reading: higher = stronger binding; endpoint: E-score
Target: Histone acetyltransferase KAT6A, both winged helices, GST fusion (KAT6A, Homo sapiens, UniProt Q92794, residues 1-181)
Setting: 8-mer, flanks averaged, mean of 2 arrays, mostly near background
Target sequence (chain): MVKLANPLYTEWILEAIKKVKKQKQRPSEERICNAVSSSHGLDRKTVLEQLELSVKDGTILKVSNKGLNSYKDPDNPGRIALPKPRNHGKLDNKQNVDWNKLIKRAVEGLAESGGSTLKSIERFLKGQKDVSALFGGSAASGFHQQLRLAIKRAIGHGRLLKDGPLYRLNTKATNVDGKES
CGTCCCCC: 0.0635
GAACAAGA: -0.0573
ACGCCAAG: -0.0834
TCAAGGAA: -0.0257
ATAACTCC: -0.0548

Series 3 — method: universal PBM; form: double-stranded DNA, one strand shown; medium: in vitro; tested at: 600 nM; reading: higher = stronger binding; endpoint: E-score
Target: Sal-like protein 4, full length isoform A (SALL4, Homo sapiens, UniProt Q9UJQ4, residues 1-1053)
Sequence of UniProt Q9UJQ4 (whole entry, looked up): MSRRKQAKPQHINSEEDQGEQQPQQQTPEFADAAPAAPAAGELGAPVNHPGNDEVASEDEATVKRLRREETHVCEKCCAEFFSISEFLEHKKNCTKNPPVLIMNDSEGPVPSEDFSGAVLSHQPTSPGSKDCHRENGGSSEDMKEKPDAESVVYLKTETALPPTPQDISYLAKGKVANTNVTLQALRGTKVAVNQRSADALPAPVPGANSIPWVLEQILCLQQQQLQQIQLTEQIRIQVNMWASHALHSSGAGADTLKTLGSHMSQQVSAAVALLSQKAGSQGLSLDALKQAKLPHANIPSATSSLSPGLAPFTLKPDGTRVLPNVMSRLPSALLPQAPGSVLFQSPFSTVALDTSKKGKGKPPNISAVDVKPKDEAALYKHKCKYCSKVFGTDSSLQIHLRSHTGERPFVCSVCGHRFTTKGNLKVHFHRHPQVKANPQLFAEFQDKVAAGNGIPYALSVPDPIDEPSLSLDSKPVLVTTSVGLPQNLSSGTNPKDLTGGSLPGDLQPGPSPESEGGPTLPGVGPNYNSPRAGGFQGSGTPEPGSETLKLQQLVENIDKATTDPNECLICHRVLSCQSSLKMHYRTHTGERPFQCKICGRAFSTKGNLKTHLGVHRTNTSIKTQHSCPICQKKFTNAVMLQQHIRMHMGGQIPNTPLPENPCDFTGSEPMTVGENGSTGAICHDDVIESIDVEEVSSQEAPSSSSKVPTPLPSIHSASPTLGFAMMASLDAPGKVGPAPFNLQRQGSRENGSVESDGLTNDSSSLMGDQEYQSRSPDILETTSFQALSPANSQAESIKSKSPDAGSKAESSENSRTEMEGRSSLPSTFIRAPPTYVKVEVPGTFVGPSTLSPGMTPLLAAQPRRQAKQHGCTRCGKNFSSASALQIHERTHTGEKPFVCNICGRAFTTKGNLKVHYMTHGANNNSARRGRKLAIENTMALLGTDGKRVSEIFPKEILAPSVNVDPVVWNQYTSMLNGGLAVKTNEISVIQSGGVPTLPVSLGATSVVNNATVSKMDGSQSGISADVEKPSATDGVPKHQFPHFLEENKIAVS
Setting: 8-mer, flanks averaged, mean of replicates
AATTTGGC: 0.0839
TTCCTCAA: 0.0661
ACCGCCGG: -0.373
AACTCGTA: 0.173

Single results of other studies
PhoQ, residues 284 288 289 292 302 303 AMDMFI — fold induction (PhoP, residues 12 14 15 18 19 SGWQI (Escherichia coli, UniProt P23836); Sort-seq, refers to: YFP reporter; E. coli; PhoQ-PhoP variant library, added: 10 µM Mg2+; reference: high Mg2+ state, higher = stronger signaling): 1.16
